Experimental data of several laboratories.
Lines come from different studies, so protocols differ. ± marks the error that the study gave.

`C[C@@H](Cn1ccc(-c2ccc(C#N)c(Cl)c2)n1)NC(=O)c1cc([C@@H](C)O)[nH]n1` has a Vd/F of 201000 mL (human, fasted; oral, 300 mg 14C-darolutamide solution, geometric mean).
For `Nc1ccn([C@@H]2CS[C@H](CO)O2)c(=O)n1`, the drug concentration was 26300 ± 4500 ng/g (Tat+ transgenic mouse, hippocampus; subcutaneous osmotic pump, dose not given, 5 d).
For `O=C(O)c1ccc(C(=O)Nc2cc(C3CC3)n[nH]2)cc1`, the logP was -1.3 (octanol/buffer; pH 11).
`O=C(Nc1nc2cccc(-c3ccc(CN4CCS(=O)(=O)CC4)cc3)n2n1)C1CC1` — result for “treatment-emergent adverse events”: 0% (measured: thrombocytopenia; rheumatoid arthritis patients; oral, 75 mg once daily, 4 weeks, any relatedness).
With `N#CCC1CCN(c2nc(Nc3ccc(N4CCC(O)CC4)cc3)c3c(=O)[nH]ncc3n2)CC1` the AUC(0-24 h) was 2100 ng·h/mL (human, plasma; oral, 40 mg once daily, day 15).
`COc1cccc2c(N3CCC(CCP(=O)(O)O)CC3)ncnc12`: “time to brain detection” ≤ 5 min (mouse C57BL/6, female, CSF and brain; subcutaneous, 50 to 100 mg/kg).
For `CC(=O)c1ccc([C@H]2C[C@@]3(C)[C@@H](CC[C@@]3(O)C(F)(F)C(F)(F)F)[C@@H]3CCC4=CC(=O)CCC4=C32)cc1`, the serum concentration was 12.4 ng/mL (human, pooled serum; oral, 200 mg, day 1, 4 h).
`CCO[C@H]1CCN(Cc2c(OC)cc(C)c3[nH]ccc23)[C@H](c2ccc(C(=O)O)cc2)C1`: “incidence of cough” 14.3% (PNH patients, active haemolysis; oral, 100 mg, 8 weeks, treatment).
The Vd/F of `CCN1CCN(Cc2ccc(Nc3ncc(F)c(-c4cc(F)c5nc6n(c5c4)[C@H](C)CCC6)n3)nc2)CC1` is reported as 1.83e+06 mL (human, plasma; 400 mg single dose, mean).
`Cc1cc(NC2CCN(C(=O)OC3CCN(C(=O)/C=C/CN(C)C)C3)CC2)n2ncc(C(C)C)c2n1` (centres unmarked): “patients with adverse event” 36% (Phase I dose escalation CTCAE v4.0, measured: Nausea; patients with advanced solid tumours; dose not given, TIW dosing any grade).
`OC[C@H]1O[C@@H](c2ccc(F)c(Cc3cc4ccccc4s3)c2)[C@H](O)[C@@H](O)[C@@H]1O`: “hypoglycaemia-related adverse event” 9% (Japanese patients, type 1 diabetes; oral, 50 mg/day, onset day 3; reference: patients).
`Cn1c(=O)[nH]c2nc[nH]c2c1=O`: CSF concentration “not detected” (human, cerebrospinal fluid; dose not given, mean).
`CC(C)C[C@H](NC(=O)[C@H](CCC1CCCCC1)NC(=O)[C@@H]1CCCN1C(=O)c1ccc(F)cc1)C(=O)NC(C)(C)C(=O)N[C@@H](CC(C)C)C(=O)N[C@@H](CC(C)C)C(=O)NC(C)(C)C(=O)NC(C)(C)C(=O)NCCC(=O)NCCN(C)C` gave an alpha-helix content of 58.1% (circular dichroism; phosphate buffer; pH 7.4, 20 °C).
`C=CC(=O)NC1CCN(c2ncc3ncnc(Nc4ccc(Oc5ccc6c(c5)ncn6C)c(C)c4)c3n2)CC1` gave a tmax of 1 h (measured: total radioactivity; healthy male volunteers, whole blood; oral solution, 60 mg, added: [14C]-labelled compound).
`CCN1/C(=C/C(C)=O)Sc2ccc(F)cc21` gave a QRS duration of 36 ± 1 ms (cynomolgus monkey; oral, 10 mg/kg, 6 h post-dose).
`CC(=O)c1cccc(NC(=O)CSc2nnc(-c3cc4ccccc4cc3O)n2C)c1` has a logP of 1.48 (octanol/buffer; pH 11, known kinase inactives set).
For `C=CCN1CC(=O)N2[C@@H](Cc3ccc(O)cc3F)C(=O)N(Cc3cccc(N4CC(N5CCN(CC)CC5)C4)n3)C[C@@H]2N1C(=O)NCc1ccccc1`, the treatment-related vomiting was 0% (advanced solid tumour patients; oral, 15 mg twice daily, grade ≥3, dose-escalation).
The androstenedione level of `N#Cc1ccc2c(c1)[C@H]1CCCN(C(=O)c3ccc4[nH]cnc4c3)[C@H]1C2` is reported as 7.2 nmol/L (human, female; 240 mg, day 15).
For `COc1ccc(OCC(=O)Nc2cc(-c3nn4c(C)nnc4s3)ccc2C)cc1`, the logP was 2.71 (octanol/buffer; pH 11, known kinase inactives set).
For `NC1(C(=O)N[C@@H](CCO)c2ccc(Cl)cc2)CCN(c2nc[nH]c3nccc2-3)CC1`, “incidence of weight decreased” read 0% (metastatic CRPC patients; 480 mg b.i.d., grade 3 to 4, treatment-related, added: enzalutamide 160 mg daily).

Repeated from above:
`O=C(Nc1nc2cccc(-c3ccc(CN4CCS(=O)(=O)CC4)cc3)n2n1)C1CC1` — result for “treatment-emergent adverse events”: 0% (measured: thrombocytopenia; rheumatoid arthritis patients; oral, 75 mg once daily, 4 weeks, any relatedness).
For `NC1(C(=O)N[C@@H](CCO)c2ccc(Cl)cc2)CCN(c2nc[nH]c3nccc2-3)CC1`, “incidence of weight decreased” read 0% (metastatic CRPC patients; 480 mg b.i.d., grade 3 to 4, treatment-related, added: enzalutamide 160 mg daily).
The Vd/F of `CCN1CCN(Cc2ccc(Nc3ncc(F)c(-c4cc(F)c5nc6n(c5c4)[C@H](C)CCC6)n3)nc2)CC1` is reported as 1.83e+06 mL (human, plasma; 400 mg single dose, mean).
